Measurements collected from several papers.
Numbered parts are unrelated; each lists some results of a single study. Several values in a cell are separate wells, animals, samples, runs or records.
UniProt P62344, sequence (whole entry, looked up): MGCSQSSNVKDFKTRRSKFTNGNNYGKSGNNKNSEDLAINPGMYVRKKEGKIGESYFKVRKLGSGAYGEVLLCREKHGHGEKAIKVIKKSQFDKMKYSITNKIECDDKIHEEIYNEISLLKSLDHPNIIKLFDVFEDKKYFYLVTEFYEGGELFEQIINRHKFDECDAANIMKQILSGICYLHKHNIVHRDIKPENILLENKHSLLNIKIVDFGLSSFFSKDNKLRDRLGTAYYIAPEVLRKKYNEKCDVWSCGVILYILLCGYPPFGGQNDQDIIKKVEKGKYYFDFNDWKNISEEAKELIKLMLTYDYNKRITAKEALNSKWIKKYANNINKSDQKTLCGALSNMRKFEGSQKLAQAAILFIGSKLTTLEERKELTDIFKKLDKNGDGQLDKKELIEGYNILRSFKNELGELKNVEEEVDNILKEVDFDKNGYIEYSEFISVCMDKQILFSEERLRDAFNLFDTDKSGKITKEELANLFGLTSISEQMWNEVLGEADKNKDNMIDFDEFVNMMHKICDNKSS
UniProt O75914, sequence (whole entry, looked up): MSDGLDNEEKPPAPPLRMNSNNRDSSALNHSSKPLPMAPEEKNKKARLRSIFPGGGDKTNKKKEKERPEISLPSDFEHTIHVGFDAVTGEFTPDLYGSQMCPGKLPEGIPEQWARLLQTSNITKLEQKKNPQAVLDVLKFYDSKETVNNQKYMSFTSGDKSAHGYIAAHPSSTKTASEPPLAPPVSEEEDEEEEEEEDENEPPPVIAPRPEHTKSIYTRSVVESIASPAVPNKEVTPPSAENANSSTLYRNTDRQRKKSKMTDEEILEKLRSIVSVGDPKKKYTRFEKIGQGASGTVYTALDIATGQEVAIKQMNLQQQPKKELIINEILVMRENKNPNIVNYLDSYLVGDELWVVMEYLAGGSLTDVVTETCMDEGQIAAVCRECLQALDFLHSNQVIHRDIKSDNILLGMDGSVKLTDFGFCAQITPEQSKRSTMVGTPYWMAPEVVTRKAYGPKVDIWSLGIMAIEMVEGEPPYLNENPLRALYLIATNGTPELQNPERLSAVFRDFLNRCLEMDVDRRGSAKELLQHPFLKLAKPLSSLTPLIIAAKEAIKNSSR
UniProt Q16539, sequence (whole entry, looked up): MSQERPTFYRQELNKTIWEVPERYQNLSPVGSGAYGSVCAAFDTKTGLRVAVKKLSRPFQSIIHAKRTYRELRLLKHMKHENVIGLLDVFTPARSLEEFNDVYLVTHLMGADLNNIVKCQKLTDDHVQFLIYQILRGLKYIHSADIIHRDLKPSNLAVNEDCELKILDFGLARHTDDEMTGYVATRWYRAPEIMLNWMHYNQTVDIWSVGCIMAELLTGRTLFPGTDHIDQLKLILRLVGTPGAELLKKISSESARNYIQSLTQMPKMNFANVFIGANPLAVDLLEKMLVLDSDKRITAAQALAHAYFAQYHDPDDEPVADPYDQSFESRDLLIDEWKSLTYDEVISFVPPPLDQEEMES
UniProt Q6ZN16, sequence (whole entry, looked up): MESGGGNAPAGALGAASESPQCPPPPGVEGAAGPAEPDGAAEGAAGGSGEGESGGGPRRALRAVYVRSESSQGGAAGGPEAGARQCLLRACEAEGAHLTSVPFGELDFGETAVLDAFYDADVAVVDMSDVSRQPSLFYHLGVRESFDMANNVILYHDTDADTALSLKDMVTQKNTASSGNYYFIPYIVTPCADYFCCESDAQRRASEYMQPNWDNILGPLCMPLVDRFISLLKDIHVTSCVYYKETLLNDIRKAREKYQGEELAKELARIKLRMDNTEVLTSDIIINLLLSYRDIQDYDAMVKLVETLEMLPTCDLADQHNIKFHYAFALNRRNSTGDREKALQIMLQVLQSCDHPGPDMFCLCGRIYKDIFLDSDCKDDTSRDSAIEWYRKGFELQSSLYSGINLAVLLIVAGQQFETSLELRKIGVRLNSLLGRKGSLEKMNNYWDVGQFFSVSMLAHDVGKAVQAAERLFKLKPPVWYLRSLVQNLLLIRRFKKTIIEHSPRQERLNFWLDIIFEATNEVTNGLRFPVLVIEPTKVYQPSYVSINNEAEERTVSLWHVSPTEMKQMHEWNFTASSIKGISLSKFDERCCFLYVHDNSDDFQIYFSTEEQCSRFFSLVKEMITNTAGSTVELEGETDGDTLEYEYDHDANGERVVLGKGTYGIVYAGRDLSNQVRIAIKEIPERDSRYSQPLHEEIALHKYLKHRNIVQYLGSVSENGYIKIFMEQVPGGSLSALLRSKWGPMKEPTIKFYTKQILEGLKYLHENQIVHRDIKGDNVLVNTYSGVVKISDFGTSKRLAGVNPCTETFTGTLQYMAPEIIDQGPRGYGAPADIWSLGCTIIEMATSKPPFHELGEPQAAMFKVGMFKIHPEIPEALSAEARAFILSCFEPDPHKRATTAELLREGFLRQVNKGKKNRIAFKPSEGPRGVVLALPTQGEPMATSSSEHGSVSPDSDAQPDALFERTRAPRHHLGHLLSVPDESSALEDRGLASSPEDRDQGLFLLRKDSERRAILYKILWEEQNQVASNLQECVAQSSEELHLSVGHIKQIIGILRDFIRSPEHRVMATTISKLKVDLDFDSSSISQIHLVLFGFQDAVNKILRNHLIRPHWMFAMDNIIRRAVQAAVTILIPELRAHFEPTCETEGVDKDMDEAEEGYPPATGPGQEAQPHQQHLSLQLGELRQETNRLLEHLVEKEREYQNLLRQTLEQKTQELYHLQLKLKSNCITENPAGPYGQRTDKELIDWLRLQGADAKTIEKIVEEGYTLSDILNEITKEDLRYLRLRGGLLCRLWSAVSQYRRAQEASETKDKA

Set 1
Target: Interleukin-1 receptor-associated kinase 4 (IRAK4, Homo sapiens, UniProt Q9NWZ3)
UniProt Q9NWZ3, sequence (whole entry, looked up): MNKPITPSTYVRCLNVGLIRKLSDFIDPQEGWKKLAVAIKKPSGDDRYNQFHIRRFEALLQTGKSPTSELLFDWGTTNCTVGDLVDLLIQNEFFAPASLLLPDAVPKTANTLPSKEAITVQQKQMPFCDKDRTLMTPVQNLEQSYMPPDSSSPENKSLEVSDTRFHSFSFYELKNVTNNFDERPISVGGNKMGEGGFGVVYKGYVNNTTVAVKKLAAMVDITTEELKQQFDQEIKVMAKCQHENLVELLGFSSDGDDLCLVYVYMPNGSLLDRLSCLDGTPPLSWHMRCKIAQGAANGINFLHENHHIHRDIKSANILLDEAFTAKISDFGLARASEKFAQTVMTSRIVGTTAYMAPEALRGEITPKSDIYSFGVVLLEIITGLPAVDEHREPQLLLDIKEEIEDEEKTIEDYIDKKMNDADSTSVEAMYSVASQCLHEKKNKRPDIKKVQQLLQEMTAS
Observed: enzyme activity
Action: inhibitor
Tested at: 0.5 µM
Relative to: control
Structure (SMILES) | remaining activity
OCC(O)CCON=C1C(c2c(O)[nH]c3ccccc23)=Nc2ccccc21 (stereo not shown) | 60.3%
O=C1NC(=O)C(c2cn(CCCn3ccnc3)c3ccccc23)=C1Nc1ccccc1 | 89.5%
CC(C)[C@H](CO)Nc1nc(Nc2cc(N)cc(Cl)c2)c2ncn(C(C)C)c2n1 | 86.8%
CN(C)c1ccc(C=C2C(=O)Nc3ccccc32)cc1 | 104%
COc1ccc(OC)c2c(=S)c3ccccc3[nH]c12 | 109%
Cc1ccc(NC(=O)c2ccc(CN3CCN(C)CC3)cc2)cc1Nc1nc(-c2cccnc2)cs1 | 97.4%
Nc1ccc2ncnc(NCCc3ccc(Oc4ccccc4)cc3)c2c1 | 92.4%
Nc1ncnc2n[nH]c(Nc3ccc(F)cc3)c12 | 88.3%
O=C1NC(=O)C(c2cn(CCCO)c3ncccc23)=C1c1cnccn1 | 129%
Cn1sc(=O)n(Cc2ccccc2)c1=O | 107%
Oc1ccc(-c2nc(-c3ccncc3)c(-c3ccc(F)cc3)[nH]2)cc1 | 124%
COc1ccc(CNC(=O)Nc2ncc([N+](=O)[O-])s2)cc1 | 101%
C#Cc1cccc(Nc2ncnc3cc(OCCOC)c(OCCOC)cc23)c1 | 93.8%
N#CC(C#N)=C(N)/C(C#N)=C/c1ccc(O)cc1 | 92.6%

Set 2
Target: 5-hydroxytryptamine receptor 7 (HTR7, Homo sapiens, UniProt P34969)
UniProt P34969, sequence (whole entry, looked up): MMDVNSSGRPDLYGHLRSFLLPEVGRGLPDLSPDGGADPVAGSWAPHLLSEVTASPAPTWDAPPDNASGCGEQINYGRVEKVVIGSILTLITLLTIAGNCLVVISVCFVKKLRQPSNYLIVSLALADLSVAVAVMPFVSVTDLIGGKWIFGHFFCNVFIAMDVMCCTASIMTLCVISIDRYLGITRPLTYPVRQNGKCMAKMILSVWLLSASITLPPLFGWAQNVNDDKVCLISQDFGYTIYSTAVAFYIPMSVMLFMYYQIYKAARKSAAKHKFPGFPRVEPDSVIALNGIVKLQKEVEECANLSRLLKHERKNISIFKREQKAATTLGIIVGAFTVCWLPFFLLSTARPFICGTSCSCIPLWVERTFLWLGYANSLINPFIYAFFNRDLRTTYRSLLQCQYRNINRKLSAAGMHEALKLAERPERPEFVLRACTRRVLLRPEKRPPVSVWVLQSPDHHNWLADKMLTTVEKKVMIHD
Observed: ligand displacement
Tested at: 10 µM
SMILES | inhibition [%]
COc1cc(-c2cn(C3CCc4c(F)cccc4N(CC(F)(F)F)C3=O)nn2)ccc1-n1cnc(C)c1 (stereo not shown) | 26.8
COc1ccc2cc(OCC3(C(=O)O)CN(C(=O)c4ccc(F)cc4)C3)ccc2c1 | -9.26
Cc1noc([C@H]2C[C@@H](c3ccc(C(F)(F)F)cc3)CN(C(=O)N3CCS(=O)(=O)C3)C2)n1 | 21.8
CC(=O)Nc1ncc(CN2CCC[C@H](Cc3cc(C)nc(C)c3)C2)s1 | 9.6
CO[C@H]1CC[C@H](CNc2ccc(S(=O)(=O)NC(=O)c3ccc(N4CCN(CC5=C(c6ccc(Cl)cc6)CC(C)(C)CC5)CC4)cc3Oc3cnc4[nH]ccc4c3)cc2[N+](=O)[O-])CC1 | -7.24
O=C(NS(=O)(=O)c1ccc(NCC2CCOCC2)c([N+](=O)[O-])c1)c1ccc(N2CCN(Cc3ccc(C(F)(F)F)cc3-c3ccc(Cl)cc3)CC2)cc1Oc1cnc2[nH]ccc2c1 | -22.4
O=C1NC(c2ccccn2)Sc2ccccc21 (stereo not shown) | -5.1

Set 3
Compound: Cc1ccc(NC(=O)c2ccnc(C(F)(F)F)c2)cc1-c1cc(OCCO)nc(N2CCOCC2)c1
Observed: binding
Tested at: 1 µM
target | test | remaining binding [%]
CDPK1 (Plasmodium falciparum, UniProt P62344) | – | 77
PAK3 (Homo sapiens, UniProt O75914) | – | 26
MAP3K15 (Homo sapiens, UniProt Q6ZN16) | – | 66
MAPK14 (Homo sapiens, UniProt Q16539) | competition with immobilised ligand | 26

Set 4
Cell line: HuT78
Tested at: 2 µM
Time: 48 h
Relative to: untreated
Compound | viability [%]
CC[C@@H]1C(=O)N(C)c2cnc(Nc3ccc(C(=O)N[C@H]4CC[C@H](N5CCN(CC6CC6)CC5)CC4)cc3OC)nc2N1C(C)C | 14.6
Cc1cc2c(F)c(Oc3ncnn4cc(OC[C@@H](C)OC(=O)[C@H](C)N)c(C)c34)ccc2[nH]1 | 89.9
O=S(=O)(c1cccc2cnccc12)N1CCCNCC1 | 141
Cc1ccc(NC(=O)c2ccc(CN3CCN(C)CC3)cc2)cc1Nc1nc(-c2cccnc2)cs1 | 138
CCN1CCN(Cc2ccc(-c3cc4c(N[C@H](C)c5ccccc5)ncnc4[nH]3)cc2)CC1 | 141
Cn1cc(-c2ccc3ncc(Cc4ccc5ncccc5c4)n3n2)cn1 | 91.7
COc1cc(-c2cc(-c3ccc(N4CCNCC4)cc3)cnc2C)cc(OC)c1OC | 97.8
CNC(=O)c1nn(C)c2c1C(C)(C)Cc1cnc(Nc3ccc(N4CCN(C)CC4)cc3)nc1-2 | 82.1

Mixed results
Structure (SMILES) | test | test system | setting | quantity | value
COc1ccc(-c2c(Nc3ccccn3)[nH]c3c(C4=CCCCC4)c(-c4ccccc4)nn3c2=O)cc1 | LC-MS/MS | human, plasma | oral, 50 mg once daily | fluctuation over tau | 40.6% and 40.1% and 42.1%

Repeated from above (set 1):
Structure (SMILES) | remaining activity
COc1ccc(OC)c2c(=S)c3ccccc3[nH]c12 | 109%
Cc1ccc(NC(=O)c2ccc(CN3CCN(C)CC3)cc2)cc1Nc1nc(-c2cccnc2)cs1 | 97.4%
Nc1ccc2ncnc(NCCc3ccc(Oc4ccccc4)cc3)c2c1 | 92.4%
